Assay results collected from several papers.
Lines come from different studies, so protocols differ. ± gives the spread as reported.

| Structure (SMILES) | assay | test system | conditions | endpoint | result |
| --- | --- | --- | --- | --- | --- |
| CC[C@H](C)CCCCC(=O)N[C@@H](CCN)C(=O)N[C@H](C(=O)N[C@@H](CCN)C(=O)N[C@H]1CCNC(=O)[C@H]([C@@H](C)O)NC(=O)[C@H](CCN)NC(=O)[C@H](CCN)NC(=O)[C@H](CC(C)C)NC(=O)[C@@H](CC(C)C)NC(=O)[C@H](CCN)NC1=O)[C@@H](C)O | LC-MS/MS | Transwell device | 500 ng/mL, 4 h, 37 °C | drug retained in HBSS | < 20% |
| Cc1cccc(Cn2nc(C3CC3)c3c(NC(=O)c4cnc5cc(OCCN6CCN(C)CC6)ccn45)cccc32)n1 | CTCAE v4.03, item: blood alkaline phosphatase increased | patients with advanced solid tumours | oral, all dose levels, together with: pembrolizumab 2 mg/kg IV every 3 weeks | all-cause adverse events | 31.6% |
| CCc1ccc(CC/C=C/c2ccc3c(c2)C(=O)CC3)cc1 |  | Sprague-Dawley rat, female | oral, 450 mg/kg/day, 14 days | GGT serum activity | 1.67 U/L |
| CCN1[C@@H](C(=O)NC23CCC(C(=O)O)(CC2)CC3)[C@H](c2cccc(Cl)c2F)[C@]2(C(=O)Nc3cc(Cl)ccc32)C12CCCCC2 |  | patients with advanced solid tumours | oral, 100 mg | grade ≥3 Lymphocytopenia incidence | 18.2% |
| NCCCC[C@@H]1NC(=O)[C@@H](Cc2c[nH]c3ccccc23)NC(=O)[C@H](c2ccccc2)NC(=O)[C@@H]2C[C@@H](OC(=O)NCCN)CN2C(=O)[C@H](Cc2ccccc2)NC(=O)[C@H](Cc2ccc(OCc3ccccc3)cc2)NC1=O |  | healthy human volunteers | 600 µg twice daily | subjects with injection-site swelling | 3% |
| CC(=O)c1c(C)c2cnc(Nc3ccc(C4CCN(CCS(C)(=O)=O)CC4)cn3)nc2n(C2CCCC2)c1=O |  | Sprague-Dawley rat | oral, 20, 80, 320 mg/kg, 3 and 24 h | CNS function | no effect |
| CN1CC[C@@H](c2c(O)cc(O)c3c(=O)cc(-c4ccc(C(F)(F)F)cc4Cl)oc23)[C@@H]1CO | item: Diarrhea | B-cell malignancies or AML | oral, 50 mg, continuous dosing | patients with adverse event | 25% |
| CC(C)CC(=O)OC[C@H]1O[C@@](C#N)(c2ccc3c(N)ncnn23)[C@H](O)[C@@H]1O |  | mouse whole blood | 5 µM, 60 min | remaining compound | 0% |
| COc1ccc2nc3cc(Cl)ccc3c(Nc3cc(CN4CCCC4)c(O)c(CN4CCCC4)c3)c2n1 |  | mouse, blood | intraperitoneal, 14 mg/kg | ALT activity | 0.55 U/L |
| COc1ncccc1-c1cnn2ccc(N3CCN(C(=O)OC(C)C)CC3)nc12 |  | rat, CCI cold allodynia model, plasma | oral, 30 mg/kg, 240 min | drug concentration | 3.5 µM |
| COC[C@@H](CC(C)C)NC(=O)c1ccc(C)c(C)c1 |  | Hsd:ICR (CD-1) mouse, male, bone marrow | oral, 2000 mg/kg, 48 h | PCE to total erythrocyte ratio | 0.522 |
| C[C@@H]1NC(=O)[C@H](CCCCNC(=O)CO/N=C/C(=O)NCCCC[C@@H]2NC(=O)[C@@H](Cc3ccccc3)NC(=O)[C@H](CC(=O)O)NC(=O)CNC(=O)[C@H](CCCNC(=N)N)NC2=O)NC(=O)CNC(=O)[C@@H]2CCCN2C(=O)[C@H](CCCCNC(=O)CO/N=C/C(=O)NCCCC[C@@H]2NC(=O)[C@@H](Cc3ccccc3)NC(=O)[C@H](CC(=O)O)NC(=O)CNC(=O)[C@H](CCCNC(=N)N)NC2=O)NC(=O)[C@H](CCCCNC(=O)CN2CCCNCCNCCCNCC2)NC(=O)[C@H](CCCCNC(=O)CO/N=C/C(=O)NCCCC[C@@H]2NC(=O)[C@@H](Cc3ccccc3)NC(=O)[C@H](CC(=O)O)NC(=O)CNC(=O)[C@H](CCCNC(=N)N)NC2=O)NC(=O)CNC(=O)[C@@H]2CCCN2C(=O)[C@H](CCCCNC(=O)CO/N=C/C(=O)NCCCC[C@@H]2NC(=O)[C@@H](Cc3ccccc3)NC(=O)[C@H](CC(=O)O)NC(=O)CNC(=O)[C@H](CCCNC(=N)N)NC2=O)NC1=O [copper-64 labelled] |  | normal mice, liver | intravenous, 0.74 MBq, 24 h post-injection | tissue uptake | 5.03 ± 0.41 %ID/g |
| CO[C@H]1C[C@@H]2CC[C@@H](C)[C@@](O)(O2)C(=O)C(=O)N2CCCC[C@H]2C(=O)O[C@H]([C@H](C)C[C@@H]2CC[C@@H](OC(=O)NCCOCCOCCOCCOCCOCCOCCOCCOCCC(=O)N3CCc4cc(Cn5nc(-c6ccc7oc(N)nc7c6)c6c(N)ncnc65)ccc4C3)[C@H](OC)C2)C[C@@H](O)[C@H](C)/C=C(\C)[C@@H](O)[C@@H](OC)C(=O)[C@H](C)C[C@H](C)/C=C/C=C/C=C/1C | phase 1 dose escalation, item: decreased appetite | advanced solid tumour patients | intravenous, 16 mg weekly, grade ≥3 | TRAE incidence | 0% |

Some of these lines once more:
| Structure (SMILES) | assay | test system | conditions | endpoint | result |
| --- | --- | --- | --- | --- | --- |
| CCN1[C@@H](C(=O)NC23CCC(C(=O)O)(CC2)CC3)[C@H](c2cccc(Cl)c2F)[C@]2(C(=O)Nc3cc(Cl)ccc32)C12CCCCC2 |  | patients with advanced solid tumours | oral, 100 mg | grade ≥3 Lymphocytopenia incidence | 18.2% |
